Measurements gathered from unrelated publications.
Protocols differ between the studies behind these lines. Several values in a cell are separate wells, animals, samples, runs or records. ± marks the error that the study gave.

SMILES | test | system | conditions | how to read | endpoint | value
CNC(=O)c1c(C)oc2cc(Oc3ccnc4cc(OCCN5CCOCC5)ccc34)ccc12 | response or stable disease ≥4 cycles, RECIST 1.0 | patients with advanced solid tumours | dose not given, once daily dosing |  | disease control rate | 27%
Cc1cn(-c2cc(NC(=O)c3ccc(C)c(Nc4nccc(-c5cccnc5)n4)c3)cc(C(F)(F)F)c2)cn1 |  | Alzheimer's disease patients | dose not given, baseline, group mean | direction not given | MMSE score | 18.8 ± 4
NNc1ccccc1 | hydrazine ligation kinetics, absorbance |  | concentration not given, 30 s, added: 2-formylphenylboronic acid |  | normalised absorbance | 0.891
O=S(=O)([O-])C(F)(F)C(F)(F)C(F)(F)C(F)(F)C(F)(F)C(F)(F)C(F)(F)C(F)(F)F.[K+] |  | male C57BL/6J mice, EtOH-fed, blood | dose not given, added: binge EtOH 5 g/kg | relative to: efavirenz | blood alcohol concentration | decreased
CC[C@H](C)[C@@H]1NC(=O)[C@@H]2CCCN2C(=O)[C@H](CC(C)C)NC(=O)[C@H](CC(C)C)NC(=O)CNC(=O)[C@@H](NC(=O)[C@@H](NC(=O)[C@H](CC(=O)O)NC(=O)CNC(=O)[C@@H](NC(=O)[C@H](C)NC(=O)CNC(=O)[C@H](CCCCN)NC(=O)[C@H](CC(C)C)NC(=O)[C@H](CC(C)C)NC(=O)[C@H](CCCCN)NC(=O)CNC(=O)[C@@H](NC(=O)[C@@H](N)CC(C)C)C(C)C)C(C)C)C(C)C)CSSC[C@@H](C(=O)O)NC1=O | RNA-seq, item: Usb1 | mouse, traumatic brain injury model, frontal cortex and hippocampus | dose not given | relative to: TBI alone | log2 fold change | -0.883
[131I-].[Na+] | ATA response criteria | human, papillary thyroid cancer, nodal metastases | 3700 MBq |  | indeterminate response | 18.6%
CC(C)C1CCC(N2CCC(N3C(=O)C(=O)c4ccccc43)CC2)CC1 (centres unmarked) |  | conscious Sprague-Dawley rats | iv, 30 nmol/kg |  | heart rate change | no effect
CSCC[C@@H]1NC(=O)[C@H](Cc2c[nH]c3ccccc23)NC(=O)[C@@H](NC(=O)CCNC(=O)[C@H](CCC(N)=O)NC(=O)[C@@H]2CCCN2C(=O)[C@@H]2CCCN2C(=O)[C@H](CCCNC(=N)N)NC(=O)[C@H](CCCNC(=N)N)NC(=O)[C@H](CCCNC(=N)N)NC(=O)[C@H](CCC(N)=O)NC(=O)[C@H](CCCNC(=N)N)NC(=O)[C@H](CCCNC(=N)N)NC(=O)[C@H](CCCCN)NC(=O)[C@H](CCCCN)NC(=O)[C@H](CCCNC(=N)N)NC(=O)CN)CSSC[C@@H](C(=O)O)NC(=O)[C@H]([C@@H](C)O)NC(=O)CNC(=O)[C@H](CC(C)C)NC(=O)[C@H](Cc2c[nH]cn2)NC(=O)[C@H](CCCNC(=N)N)NC(=O)[C@@H]2CCCN2C(=O)[C@H](CO)NC1=O | immunohistochemistry | NCI-H226 xenograft mouse, tumour tissue | intravenous, 2 mg/kg, day 16 |  | CDC37 staining | 0.12 ± 0.014 IOD/area
CC[C@@H](C)[C@@H](NC(=O)[C@@H](Cc1ccc(O)cc1)NC(=O)[C@H]1CCCN1C(=O)[C@@H](CCCNC(=N)N)NC(=O)[C@H](N)Cc1c[nH]cn1)C(=O)N[C@H](C)C(=O)N[C@H](Cc1c[nH]cn1)C(=O)N[C@H](CCCNC(=N)N)C(=O)N[C@H](CCCCNC(=O)c1cccc(S(=O)(=O)F)c1)C(=O)N[C@H](Cc1ccc(O)cc1)C(=O)N[C@H](CO)C(=O)N[C@H](Cc1ccccc1)C(N)=O | ex vivo flow cytometry | MC-38 tumour-bearing mice, spleen | 1.3 mg/kg | relative to: CD8+ T cells | IFN-γ+ CD8+ T cells | 5.27% and 5.63% and 7.05% and 6.16%
O=C1C2CC3CC(C2)CC1C3 | pH gradient | Escherichia coli inverted membrane vesicles |  |  | IC50 | > 1000 µM
CCCCCCCCCCCCCCCCCCOCC(COP(=O)([O-])OCC[N+](C)(C)C)OC (centres unmarked) | calcium response, decay phase | N2a, mouse | 10 µM, added: ATP 300 µM |  | inhibition | 41%
Cc1nc(Nc2ccc(CC(=O)O)cc2)nc(Nc2ccc(F)c(C(F)(F)F)c2)c1C | item: PDE4A | C57BL/6J mice, high-fat diet, liver | intraperitoneal, 0.3 mg/kg daily, 60% fat diet 12 weeks, dosed last four | relative to: vehicle | mRNA level | no effect
CCCCC/C=C\C/C=C\C/C=C\C/C=C\CCCC(=O)NCCO |  | mouse, formalin paw test | intraperitoneal, 5 mg/kg, late phase | relative to: vehicle, direction not given | change in licking score | -35%
CCCCC1(CCCC)CN(c2ccccc2)c2cc(SC)c(OCC(=O)N[C@@H](C(=O)NCC(=O)O)c3ccccc3)cc2S(=O)(=O)C1 | item: HDL cholesterol | human, serum | 10 mg once daily, day 13 |  | serum HDL-C | 47 mg/dL
C[C@]12CC[C@H](O)C[C@H]1CC[C@@H]1[C@@H]2CC[C@]2(C)[C@@H](c3ccc(=O)oc3)CC[C@]12O |  | female nude mouse LCC2 xenograft | 1.0 mg/kg, day 3, tamoxifen-resistant |  | tumour volume | 27.5 mm3 and 20 mm3 and 27.3 mm3 and 41.6 mm3 and 39.4 mm3 and 26.6 mm3 and 30.3 mm3
C[C@H]1O[C@@H](O[C@H]2CC[C@@]3(C)[C@@H](CC[C@]4(C)[C@@H]3C=C[C@]35OC[C@@]6(CCC(C)(C)C[C@H]63)[C@@H](O)C[C@]54C)[C@]2(C)CO)[C@H](O)[C@@H](O[C@@H]2O[C@H](CO)[C@@H](O)[C@H](O)[C@H]2O)[C@H]1O | H&E staining | hepatic SIRT1 knockdown mice, chronic-plus-binge ethanol, liver | dose not given, AAV8-TBG-shRNA, high dose |  | steatosis area | 21.8% and 21.4% and 23.6% and 19.4% and 17.8% and 20.7% and 21.9% and 22.6%
C[C@]1(CO)Cc2ncn(-c3ccc(C#N)c(Cl)c3)c2C(=O)O1 |  | Chinese subjects | 3 mg single dose |  | urinary potassium excretion 0-24 h | 32 mmol
FC(F)(F)c1ccc2c(c1)[C@@H]1CNC[C@H]2C1 | two-bottle choice | Wistar rat, intermittent 20% ethanol access | subcutaneous, 10 mg/kg, 6 h |  | ethanol intake | 2 ± 0.2 g/kg
CCCCC1CNC2CCc3ccc(OC)cc3C12.Cl (racemic) | RNA sequencing, item: ATP synthase subunit genes | SAMP8 mice, hippocampus | intracerebroventricular, 1.0 µg/µL, 24 h | relative to: vehicle | mRNA level | increased
CN1CCN(S(=O)(=O)c2cc([N+](=O)[O-])ccc2N(CCOS(C)(=O)=O)CCOS(C)(=O)=O)CC1 |  | NSG mice, sample DA PDX | intraperitoneal, 25 mg/kg weekly x3 | relative to: vehicle | EFS delay (T-C) | > 364 days
